Measurements collected from several papers.
Parts stem from different laboratories: compare values within a part only. pIC50: −log10 of the molar value.
Chain of UniProt Q13188 (whole entry, looked up): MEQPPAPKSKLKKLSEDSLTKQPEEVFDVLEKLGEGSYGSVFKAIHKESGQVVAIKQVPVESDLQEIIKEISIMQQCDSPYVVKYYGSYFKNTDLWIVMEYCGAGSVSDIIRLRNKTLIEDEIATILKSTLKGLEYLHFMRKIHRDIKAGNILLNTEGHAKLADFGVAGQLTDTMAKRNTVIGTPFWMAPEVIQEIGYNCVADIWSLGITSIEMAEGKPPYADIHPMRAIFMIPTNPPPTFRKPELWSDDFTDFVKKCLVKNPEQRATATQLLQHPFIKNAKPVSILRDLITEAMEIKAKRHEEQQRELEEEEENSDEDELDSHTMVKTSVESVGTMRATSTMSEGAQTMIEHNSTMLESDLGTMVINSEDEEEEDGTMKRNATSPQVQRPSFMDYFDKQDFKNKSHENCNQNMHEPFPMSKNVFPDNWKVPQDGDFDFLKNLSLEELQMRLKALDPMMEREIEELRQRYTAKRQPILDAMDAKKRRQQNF
Chain of UniProt P36507 (whole entry, looked up): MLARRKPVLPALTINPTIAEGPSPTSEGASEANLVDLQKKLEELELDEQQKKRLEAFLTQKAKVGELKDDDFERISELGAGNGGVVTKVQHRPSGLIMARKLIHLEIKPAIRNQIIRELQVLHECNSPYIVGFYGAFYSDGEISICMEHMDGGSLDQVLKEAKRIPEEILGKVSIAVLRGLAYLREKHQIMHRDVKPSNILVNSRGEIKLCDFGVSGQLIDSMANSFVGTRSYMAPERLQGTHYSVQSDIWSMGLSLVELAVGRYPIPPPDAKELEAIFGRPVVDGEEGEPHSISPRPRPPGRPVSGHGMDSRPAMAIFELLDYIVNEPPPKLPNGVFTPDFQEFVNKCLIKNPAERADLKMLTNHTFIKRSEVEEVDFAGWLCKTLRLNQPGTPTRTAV
Chain of UniProt P48729 (whole entry, looked up): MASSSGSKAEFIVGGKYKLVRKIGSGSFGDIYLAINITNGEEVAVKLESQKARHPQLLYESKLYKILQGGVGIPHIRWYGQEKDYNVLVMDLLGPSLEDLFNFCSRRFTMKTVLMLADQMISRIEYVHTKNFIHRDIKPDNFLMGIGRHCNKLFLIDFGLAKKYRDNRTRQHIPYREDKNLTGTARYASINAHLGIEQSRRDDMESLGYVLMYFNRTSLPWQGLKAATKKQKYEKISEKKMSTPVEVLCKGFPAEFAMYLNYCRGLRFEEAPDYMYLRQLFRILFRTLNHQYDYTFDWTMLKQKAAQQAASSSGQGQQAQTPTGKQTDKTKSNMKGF
Chain of UniProt Q9UKE5 (whole entry, looked up): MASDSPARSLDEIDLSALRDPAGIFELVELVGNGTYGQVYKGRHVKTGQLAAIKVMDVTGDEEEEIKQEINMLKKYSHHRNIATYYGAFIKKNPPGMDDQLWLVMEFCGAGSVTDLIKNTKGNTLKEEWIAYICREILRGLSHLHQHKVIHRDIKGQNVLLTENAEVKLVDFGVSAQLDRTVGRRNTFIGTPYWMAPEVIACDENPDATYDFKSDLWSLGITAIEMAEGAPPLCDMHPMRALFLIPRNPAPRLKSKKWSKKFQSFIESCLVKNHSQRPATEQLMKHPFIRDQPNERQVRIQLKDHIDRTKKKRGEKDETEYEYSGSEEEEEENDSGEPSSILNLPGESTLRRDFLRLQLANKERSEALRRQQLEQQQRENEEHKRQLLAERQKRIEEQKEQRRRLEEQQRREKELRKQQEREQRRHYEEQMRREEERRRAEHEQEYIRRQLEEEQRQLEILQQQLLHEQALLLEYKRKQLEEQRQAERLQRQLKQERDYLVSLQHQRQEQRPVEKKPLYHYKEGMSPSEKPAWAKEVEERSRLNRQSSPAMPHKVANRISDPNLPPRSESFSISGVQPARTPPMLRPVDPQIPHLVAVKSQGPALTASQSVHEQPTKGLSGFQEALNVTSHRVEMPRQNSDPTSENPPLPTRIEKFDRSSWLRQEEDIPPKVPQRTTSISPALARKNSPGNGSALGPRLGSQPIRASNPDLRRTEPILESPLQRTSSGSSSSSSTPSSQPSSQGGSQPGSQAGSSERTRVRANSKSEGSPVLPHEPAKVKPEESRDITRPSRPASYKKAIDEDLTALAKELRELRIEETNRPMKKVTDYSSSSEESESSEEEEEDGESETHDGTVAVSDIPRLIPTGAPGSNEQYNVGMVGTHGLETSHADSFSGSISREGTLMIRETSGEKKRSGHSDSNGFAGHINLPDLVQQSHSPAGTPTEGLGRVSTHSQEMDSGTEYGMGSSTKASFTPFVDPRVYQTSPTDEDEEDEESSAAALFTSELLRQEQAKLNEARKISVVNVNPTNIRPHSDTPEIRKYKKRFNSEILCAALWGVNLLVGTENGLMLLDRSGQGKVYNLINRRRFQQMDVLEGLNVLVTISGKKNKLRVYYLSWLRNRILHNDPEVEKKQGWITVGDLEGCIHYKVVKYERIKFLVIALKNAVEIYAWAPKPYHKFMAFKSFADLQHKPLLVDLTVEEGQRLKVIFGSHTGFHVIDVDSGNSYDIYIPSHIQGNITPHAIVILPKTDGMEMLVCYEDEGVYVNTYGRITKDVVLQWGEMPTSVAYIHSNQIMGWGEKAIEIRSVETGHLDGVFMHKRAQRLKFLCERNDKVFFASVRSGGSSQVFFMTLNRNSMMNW
Chain of UniProt Q9C098 (whole entry, looked up): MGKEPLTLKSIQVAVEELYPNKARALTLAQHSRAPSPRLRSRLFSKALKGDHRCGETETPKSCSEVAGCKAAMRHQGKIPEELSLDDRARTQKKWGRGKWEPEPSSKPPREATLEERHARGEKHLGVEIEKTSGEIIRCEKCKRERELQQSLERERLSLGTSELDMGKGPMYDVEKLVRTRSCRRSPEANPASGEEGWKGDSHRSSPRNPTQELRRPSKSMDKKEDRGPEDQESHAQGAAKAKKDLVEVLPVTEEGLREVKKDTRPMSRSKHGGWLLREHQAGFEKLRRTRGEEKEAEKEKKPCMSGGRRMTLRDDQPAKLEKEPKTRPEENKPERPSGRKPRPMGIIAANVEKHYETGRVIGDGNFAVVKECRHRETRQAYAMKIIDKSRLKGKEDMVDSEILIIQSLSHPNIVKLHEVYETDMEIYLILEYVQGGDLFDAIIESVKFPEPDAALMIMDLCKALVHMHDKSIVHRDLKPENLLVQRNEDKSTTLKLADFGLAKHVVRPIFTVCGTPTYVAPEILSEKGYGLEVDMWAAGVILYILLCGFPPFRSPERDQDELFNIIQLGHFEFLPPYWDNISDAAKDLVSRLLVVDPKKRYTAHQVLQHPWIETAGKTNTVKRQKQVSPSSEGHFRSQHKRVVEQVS
Chain of UniProt Q96BR1 (whole entry, looked up): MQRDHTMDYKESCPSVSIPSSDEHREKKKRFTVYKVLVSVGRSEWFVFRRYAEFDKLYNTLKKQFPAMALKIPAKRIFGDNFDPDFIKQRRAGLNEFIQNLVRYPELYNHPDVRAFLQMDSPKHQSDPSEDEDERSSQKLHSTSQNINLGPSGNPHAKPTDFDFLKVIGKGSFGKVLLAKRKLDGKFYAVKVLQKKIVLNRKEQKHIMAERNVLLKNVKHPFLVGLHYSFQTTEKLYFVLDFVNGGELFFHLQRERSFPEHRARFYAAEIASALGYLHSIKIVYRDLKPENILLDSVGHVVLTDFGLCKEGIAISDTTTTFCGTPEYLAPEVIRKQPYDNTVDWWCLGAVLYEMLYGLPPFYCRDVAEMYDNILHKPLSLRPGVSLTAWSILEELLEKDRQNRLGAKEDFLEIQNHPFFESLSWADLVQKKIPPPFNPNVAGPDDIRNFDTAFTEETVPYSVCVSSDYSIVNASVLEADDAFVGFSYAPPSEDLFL

Block 1 — technique: KINOMEscan; concentration: 10 µM; direction: lower = stronger binding
SMILES: COc1cc(C(=O)N2CCC(N3CCN(C)CC3)CC2)ccc1Nc1ncc2c(n1)N(C)c1ccccc1C(=O)N2C
target	binding (% of control) [%]
JNK3	77
MET	100
ABL1(F317I)-phosphorylated	17
DLK	81
MRCKA	100
TRKC	100
TIE2	100
ABL1(Y253F)-phosphorylated	89
MEK1	100
ERK2	85
ABL1(H396P)-nonphosphorylated	100
LZK	100
TEC	100
SgK110	62
LOK	100
BIKE	100
KIT	100
ABL1(E255K)-phosphorylated	80
JNK1	95
MLCK	100
QSK	100

Block 2 — read-out: enzyme activity; action: inhibitor; concentration: 0.5 µM; relative to: control
Target: Tyrosine-protein kinase Fer (FER, Homo sapiens, UniProt P16591)
Chain of UniProt P16591 (whole entry, looked up): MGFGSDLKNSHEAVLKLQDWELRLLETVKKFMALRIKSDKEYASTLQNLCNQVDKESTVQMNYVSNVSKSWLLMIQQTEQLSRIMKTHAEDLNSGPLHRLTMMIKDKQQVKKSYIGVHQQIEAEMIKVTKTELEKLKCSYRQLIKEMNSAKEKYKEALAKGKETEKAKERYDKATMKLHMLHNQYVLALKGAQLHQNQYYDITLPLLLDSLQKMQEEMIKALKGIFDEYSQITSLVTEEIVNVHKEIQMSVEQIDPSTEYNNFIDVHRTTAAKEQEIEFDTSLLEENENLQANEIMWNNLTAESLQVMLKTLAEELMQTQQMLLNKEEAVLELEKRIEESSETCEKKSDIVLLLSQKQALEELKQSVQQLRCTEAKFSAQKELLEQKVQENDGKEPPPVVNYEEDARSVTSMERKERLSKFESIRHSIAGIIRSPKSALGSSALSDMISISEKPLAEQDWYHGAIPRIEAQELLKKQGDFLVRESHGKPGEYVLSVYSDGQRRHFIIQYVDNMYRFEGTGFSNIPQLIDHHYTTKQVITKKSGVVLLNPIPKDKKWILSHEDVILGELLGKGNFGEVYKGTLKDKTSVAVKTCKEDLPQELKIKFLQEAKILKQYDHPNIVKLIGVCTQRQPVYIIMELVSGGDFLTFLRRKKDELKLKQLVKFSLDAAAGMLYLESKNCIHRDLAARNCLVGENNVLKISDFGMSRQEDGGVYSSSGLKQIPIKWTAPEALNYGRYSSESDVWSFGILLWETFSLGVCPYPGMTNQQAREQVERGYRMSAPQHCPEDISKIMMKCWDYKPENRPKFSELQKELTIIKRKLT
Structure (SMILES)	remaining activity
CC(C)(C)n1nc(Cc2cccc3ccccc23)c2c(N)ncnc21	76.4%
CC[n+]1c(/C=C/N(C)c2ccccc2)n(-c2ccccc2)c2ccc(-c3nc4ccccc4s3)cc21	98.9%
N#CC(=C(N)Sc1ccc(N)cc1)c1ccccc1C(F)(F)F	105%
Nc1nccc(-c2c(-c3ccc(F)cc3)ncn2C2CCNCC2)n1	98.3%
CSc1nc(-c2ccnc(N[C@@H](C)c3ccccc3)c2)c(-c2ccc(F)cc2)[nH]1 (racemic)	97.2%
Nc1nc(Nc2ccc(S(N)(=O)=O)cc2)nn1C(=O)c1c(F)cccc1F	82%
CC(=O)c1ccc(N2CCOCC2)cc1O	90.4%
O=C1Cc2c([nH]c3ccc([N+](=O)[O-])cc23)-c2ccccc2N1	75.1%
CC#CC(=O)Nc1cc2c(Nc3ccc(F)c(Cl)c3)ncnc2cn1	98.2%
NC(=O)c1ccc(N(C(N)=O)c2c(F)cccc2F)nc1-c1ccc(F)cc1F	95.6%
Oc1ccc(Nc2nc(-c3ccc(Cl)cc3)cs2)cc1	90.3%
CCc1[nH]c(-c2ccc(OC)cc2)nc1-c1ccncc1	96.4%
Nc1ncnc2c1cnn2-c1ccccc1	99%
Cc1cncc2cccc(S(=O)(=O)N3CCCN(C(=O)CN)C[C@@H]3C)c12	66%
CCCC(=O)Oc1ccc2[nH]c(C(=O)c3cc4ccccc4[nH]3)cc2c1	101%
O=S(=O)(NCCNC/C=C/c1ccc(Br)cc1)c1cccc2cnccc12	97.6%
O=C1NC(=O)C(c2c[nH]c3ccccc23)=C1c1c[nH]c2ccccc12	83.5%
Cc1cc(Nc2nc(-c3ccccc3)nc3ccccc23)n[nH]1	31.6%
COc1ccc(S(=O)(=O)N(CCO)c2ccccc2CN(C)CC=Cc2ccc(Cl)cc2)cc1	97.1%
Cc1ccc(NC2=CC(=O)c3sc(C)nc3C2=O)cc1	83.9%
Fc1ccc(-c2nc3n(c2-c2ccncc2)CCS3)cc1	86.4%

Block 3 — read-out: cell-free assay; technique: competition with immobilised ligand; concentration: 1 µM
SMILES: O=C(Nc1ccc(Oc2ccc(F)cc2)cc1)N1CCc2ncccc2[C@H]1c1ccc(F)cc1
target	remaining binding [%]
TRAF2 and NCK-interacting protein kinase (TNIK, Homo sapiens, UniProt Q9UKE5)	100
Tyrosine-protein kinase ABL1, non-phosphorylated (ABL1, Homo sapiens, UniProt P00519)	100
Homeodomain-interacting protein kinase 1 (HIPK1, Homo sapiens, UniProt Q86Z02)	96
SRSF protein kinase 2 (SRPK2, Homo sapiens, UniProt P78362)	100
Dual specificity mitogen-activated protein kinase kinase 2 (MAP2K2, Homo sapiens, UniProt P36507)	100
Mitogen-activated protein kinase kinase kinase kinase 5 (MAP4K5, Homo sapiens, UniProt Q9Y4K4)	91
Serine/threonine-protein kinase Nek11 (NEK11, Homo sapiens, UniProt Q8NG66)	100
Serine/threonine-protein kinase 3 (STK3, Homo sapiens, UniProt Q13188)	94
Serine/threonine-protein kinase N1 (PKN1, Homo sapiens, UniProt Q16512)	100
Activated CDC42 kinase 1 (TNK2, Homo sapiens, UniProt Q07912)	99
Mast/stem cell growth factor receptor Kit (KIT, Homo sapiens, UniProt P10721, V559D/V654A)	90
Serine/threonine-protein kinase Sgk3 (SGK3, Homo sapiens, UniProt Q96BR1)	97
Casein kinase I isoform alpha (CSNK1A1, Homo sapiens, UniProt P48729)	97
Serine/threonine-protein kinase DCLK3 (DCLK3, Homo sapiens, UniProt Q9C098)	93
Fibroblast growth factor receptor 2 (FGFR2, Homo sapiens, UniProt P21802)	93
Cyclin-dependent kinase-like 1 (CDKL1, Homo sapiens, UniProt Q00532)	97

Block 4 — action: antagonist
Target: Beta-1 adrenergic receptor (ADRB1, Homo sapiens, UniProt P08588)
Chain of UniProt P08588 (whole entry, looked up): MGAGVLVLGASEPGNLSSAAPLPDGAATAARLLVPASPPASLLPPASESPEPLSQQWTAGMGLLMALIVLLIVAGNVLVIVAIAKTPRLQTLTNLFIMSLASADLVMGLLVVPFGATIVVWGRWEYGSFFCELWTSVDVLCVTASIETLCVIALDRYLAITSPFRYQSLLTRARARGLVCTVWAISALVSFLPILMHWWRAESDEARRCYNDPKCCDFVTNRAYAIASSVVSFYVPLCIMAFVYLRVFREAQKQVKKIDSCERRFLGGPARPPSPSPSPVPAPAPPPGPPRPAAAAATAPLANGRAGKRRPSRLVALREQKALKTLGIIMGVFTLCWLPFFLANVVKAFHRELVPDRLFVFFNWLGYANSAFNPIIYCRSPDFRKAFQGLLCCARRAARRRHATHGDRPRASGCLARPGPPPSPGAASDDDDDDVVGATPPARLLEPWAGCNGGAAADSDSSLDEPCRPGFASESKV
Compound	pIC50
Cc1ccsc1-c1n[nH]c2ncc(-c3ccccc3F)nc12	≤ 4.00
OC(c1ccccc1)c1nc(Nc2ccccc2)n[nH]1 (stereo not shown)	≤ 4.00
Cc1ccc(-c2cc(C(=O)N3CCC(c4nc(C5CCOCC5)no4)C3)c3ccccc3n2)cc1C (stereo not shown)	≤ 4.00
CN(C)CCNc1cc(-c2cccs2)nc2ccccc12	≤ 4.00
COc1cc(CN[C@H]2CC[C@H](O)CC2)ccc1OCC(O)CN1CCSCC1 (stereo partly shown)	≤ 4.00
COc1ccccc1NC(=O)Nc1cccc(-c2ccc(N3CCOCC3)nn2)c1	≤ 4.00
O=C(Nc1cccc(-c2ccc(N3CCOCC3)nn2)c1)Nc1cc(Cl)ccc1Cl	≤ 4.00
COc1ccccc1N1CCN(CC2CCOCC2)CC1	≤ 4.00
CN(C(=O)c1sc2nc(-c3cccs3)cc(C(F)(F)F)c2c1N)c1ccc(F)cc1	≤ 4.00
COc1ccccc1N1CCN(CC(=O)Nc2ccc(C(N)=O)cc2)CC1	≤ 4.00
CC(C)n1cc(-c2cc(C(=O)N3CCC(C)(C)C3)c3ccc(F)cc3n2)cn1	≤ 4.00
Cc1cc(=O)oc2cc(CN(C)CC(C)N3CCOCC3)ccc12 (stereo not shown)	≤ 4.00
COc1ccccc1N1CCN([C@H]2[C@@H]3OC[C@@H](O3)[C@@H](NCc3ccc4c(c3)OCO4)[C@@H]2O)CC1	≤ 4.00
COc1ccccc1N1CCN([C@H]2[C@@H]3OC[C@@H](O3)[C@@H](NCc3ccccc3O)[C@@H]2O)CC1	≤ 4.00
Cc1noc2c(-c3cccnc3NCc3cnccn3)cc(-c3ccccc3)nc12	≤ 4.00

Excerpt of the above (block 1):
target	binding (% of control) [%]
LOK	100
LZK	100
ABL1(E255K)-phosphorylated	80
JNK3	77
MLCK	100
ABL1(H396P)-nonphosphorylated	100
TIE2	100
MEK1	100
TRKC	100
JNK1	95
SgK110	62
